Measurements gathered from unrelated publications.
Organism: Klebsiella pneumoniae

| SMILES | test | system | conditions | MIC |
| --- | --- | --- | --- | --- |
| CC[C@H](C)CCCCC(=O)N[C@@H](CCN)C(=O)N[C@H](C(=O)N[C@@H](CCN)C(=O)N[C@H]1CCNC(=O)[C@H]([C@@H](C)O)NC(=O)[C@H](CCN)NC(=O)[C@H](CCN)NC(=O)[C@H](CC(C)C)NC(=O)[C@@H](CC(C)C)NC(=O)[C@H](CCN)NC1=O)[C@@H](C)O | broth microdilution | ATCC 43816 wild type, cation-adjusted MHB | – | 1 mg/L |
| CC(C)Nc1nc(Cl)c2c(c1O)C(=O)C1=C(O)[C@]3(O)C(=O)C(C(N)=O)=C(O)[C@@H](N(C)C)[C@@H]3C[C@@H]1C2.Cl.Cl.Cl | – | tet(A)-carrying | – | > 32 mg/L |
| CC[C@H](C)[C@H](NC(=O)[C@H](CC(C)C)NC(=O)[C@@H](NC(=O)[C@H](Cc1ccc(O)cc1)NC(=O)[C@H](CO)NC(=O)CNC(=O)[C@H](CCCNC(=N)N)NC(=O)[C@H](CCCNC(=N)N)NC(=O)[C@H](CCCNC(=N)N)NC(=O)[C@@H]1CCCN1C(=O)[C@H](CCCCN)NC(=O)[C@H](Cc1c[nH]c2ccccc12)NC(=O)[C@@H](NC(=O)[C@H](Cc1c[nH]c2ccccc12)NC(=O)[C@H](CCCCN)NC(=O)[C@H](CCCNC(=N)N)NC(=O)[C@H](CCCNC(=N)N)NC(=O)[C@@H]1CCCN1C(=O)[C@H](CO)NC(=O)[C@H](CCCNC(=N)N)NC(=O)[C@H](CO)NC(=O)[C@H](CCCNC(=N)N)NC(=O)[C@@H](N)CCCNC(=N)N)[C@@H](C)O)[C@@H](C)O)C(=O)N[C@@H](CO)C(=O)N[C@@H](CCC(N)=O)C(=O)NCC(=O)NCC(=O)N[C@@H](CC(N)=O)C(=O)O | – | ATCC 43823 | highest concentration 50 µM | 21.8 µM |
| CC[C@H](C)[C@H](NC(=O)[C@H](CC(C)C)NC(=O)[C@H](CCCCN)NC(=O)[C@@H](NC(=O)[C@H](C)NC(=O)[C@H](CCC(=O)O)NC(=O)[C@H](Cc1c[nH]cn1)NC(=O)[C@@H](NC(=O)[C@H](CCCCN)NC(=O)[C@H](CCC(N)=O)NC(=O)[C@H](Cc1ccccc1)NC(=O)[C@@H](NC(=O)[C@H](CCCCN)NC(=O)[C@H](CCCCN)NC(=O)[C@H](CC(C)C)NC(=O)[C@H](C)N)C(C)C)[C@@H](C)CC)[C@@H](C)CC)C(N)=O | CLSI broth microdilution | ATCC 13883 | 18 h, 37 °C | 16 µM |
| CC[C@H](C)[C@H](NC(=O)[C@H](C)N)C(=O)N[C@@H](CO)C(=O)NCC(=O)N[C@@H](CO)C(=O)N[C@@H](CC(C)C)C(=O)N[C@H](C(=O)N[C@H](C(=O)N[C@@H](CC(C)C)C(=O)N[C@@H](Cc1ccccc1)C(=O)NCC(=O)N[C@@H](Cc1ccc(O)cc1)C(=O)N[C@@H](CCCNC(=N)N)C(=O)N[C@@H](CCCNC(=N)N)C(=O)N[C@@H](CCCNC(=N)N)C(=O)N[C@@H](CCCNC(=N)N)C(=O)N[C@@H](CCCNC(=N)N)C(=O)N[C@@H](CCCNC(=N)N)C(N)=O)[C@@H](C)O)C(C)C | broth microdilution | ATCC 13883 | highest value reported | 128 µM |
| CC(=O)N[C@@H](CCCCN)C(=O)N[C@@H](CCCCN)C(=O)N[C@@H](CC(C)C)C(=O)N[C@@H](CC(C)C)C(=O)N[C@@H](CCCCN)C(=O)N[C@@H](CC(C)C)C(=O)N[C@@H](CC(C)C)C(=O)N[C@@H](CCCCN)C(=O)N[C@@H](CCCCN)C(=O)N1CCC[C@H]1C(=O)N[C@@H](CC(C)C)C(=O)N[C@@H](CCCCN)C(=O)N[C@@H](CC(C)C)C(=O)N[C@@H](CC(C)C)C(=O)N[C@@H](C)C(N)=O | broth microdilution | ATCC 700603 | 18 h, 37 °C, compound alone | > 80 µM |
| CN(C)c1ncc(O)c2c1C[C@H]1C[C@H]3[C@H](N(C)C)C(O)=C(C(N)=O)C(=O)[C@@]3(O)C(O)=C1C2=O.Cl.Cl | – | tet(A)-carrying | – | > 32 mg/L |
| CCCCCCCC(=O)N[C@@H](CCCCN)C(=O)N[C@@H](CCCCN)C(=O)N[C@@H](C)C(=O)N[C@@H](CC(C)C)C(=O)N[C@@H](CCCCN)C(=O)N[C@@H](CC(C)C)C(=O)N[C@@H](C)C(=O)N[C@@H](CCCCN)C(=O)N[C@@H](CCCCN)C(=O)N1CCC[C@H]1C(=O)N[C@@H](CC(C)C)C(=O)N[C@@H](CCCCN)C(=O)N[C@@H](CC(C)C)C(=O)N[C@@H](CC(C)C)C(=O)N[C@@H](CCCCN)C(N)=O | broth microdilution | ATCC 700603 | 18 h, 37 °C, compound alone | > 80 µM |
| NCC[C@H](O)C(=O)N[C@@H]1C[C@H](N)[C@@H](O[C@H]2O[C@H](CN)[C@@H](O)[C@H](O)[C@H]2O)[C@H](O)[C@H]1O[C@H]1O[C@H](CO)[C@@H](O)[C@H](N)[C@H]1O | broth microdilution | KPC-100 producing | – | > 128 mg/L |
| CC[C@H](C)[C@H](NC(=O)[C@H](Cc1c[nH]c2ccccc12)NC(=O)[C@@H](NC(=O)[C@H](Cc1ccccc1)NC(=O)[C@@H]1CCCN1C(=O)[C@@H](NC(=O)[C@H](C)N)[C@@H](C)CC)[C@@H](C)CC)C(=O)N[C@@H](Cc1ccccc1)C(=O)N[C@@H](CCCNC(=N)N)C(=O)N[C@@H](CC(C)C)C(=O)N[C@@H](CC(C)C)C(=O)N[C@@H](CCCNC(=N)N)C(=O)N[C@@H](CCCCN)C(=O)NCC(N)=O | broth microdilution | ATCC 700603 | 18 h, 37 °C | > 15 µM |

Excerpt of the above:
| SMILES | test | system | conditions | MIC |
| --- | --- | --- | --- | --- |
| CC[C@H](C)[C@H](NC(=O)[C@H](CC(C)C)NC(=O)[C@H](CCCCN)NC(=O)[C@@H](NC(=O)[C@H](C)NC(=O)[C@H](CCC(=O)O)NC(=O)[C@H](Cc1c[nH]cn1)NC(=O)[C@@H](NC(=O)[C@H](CCCCN)NC(=O)[C@H](CCC(N)=O)NC(=O)[C@H](Cc1ccccc1)NC(=O)[C@@H](NC(=O)[C@H](CCCCN)NC(=O)[C@H](CCCCN)NC(=O)[C@H](CC(C)C)NC(=O)[C@H](C)N)C(C)C)[C@@H](C)CC)[C@@H](C)CC)C(N)=O | CLSI broth microdilution | ATCC 13883 | 18 h, 37 °C | 16 µM |
